Published values pooled from the literature.
Numbered parts are unrelated; each lists some results of a single study. Substitutions count along the parent as printed.

Block 1 — method: RNA Bind-n-Seq; molecule type: RNA; sample: in vitro; tested at: 200 nM; notes: whole 134-nt RNA, ends assumed; with: 150 mM KCl; baseline: input library; direction: higher = stronger binding
Target: Ras GTPase-activating protein-binding protein 1, full length (G3BP1, Homo sapiens, UniProt Q13283)
Chain of UniProt Q13283 (whole entry, looked up): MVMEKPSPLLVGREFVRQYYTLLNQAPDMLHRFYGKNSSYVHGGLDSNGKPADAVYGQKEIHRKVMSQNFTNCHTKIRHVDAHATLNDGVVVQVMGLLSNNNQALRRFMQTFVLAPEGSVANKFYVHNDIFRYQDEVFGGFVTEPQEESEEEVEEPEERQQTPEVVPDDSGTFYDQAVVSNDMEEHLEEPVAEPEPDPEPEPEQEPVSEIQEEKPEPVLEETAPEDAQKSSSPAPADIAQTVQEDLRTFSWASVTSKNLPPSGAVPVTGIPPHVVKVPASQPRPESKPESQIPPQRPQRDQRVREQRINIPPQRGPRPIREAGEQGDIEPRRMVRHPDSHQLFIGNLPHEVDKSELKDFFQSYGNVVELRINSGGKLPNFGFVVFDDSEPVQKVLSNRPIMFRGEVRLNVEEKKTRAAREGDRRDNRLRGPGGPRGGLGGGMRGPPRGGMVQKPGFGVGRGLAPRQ
For `GGGAGUUCUACAGUCCGACGAUCGUCCUGUGCUACACAUCGUAUGUACCGAAUCGGGGAAAAAAAGGGGAAAGGGGUGGGGAAAGUAUUAUGUUACGCCGUUCGGAUCUGCACUGGAAUUCUCGGGUGUCAAGG`, the log2 enrichment was 0.188.
For `GGGAGUUCUACAGUCCGACGAUCGUCCUGUGCUACACAUCGUAUGUACCGAAUCGGGGUUUGGGGAGGGGUUUUUUUGGGGAAAGUAUUAUGUUACGCCGUUCGGAUCUGCACUGGAAUUCUCGGGUGUCAAGG`, the log2 enrichment was 0.325.
`GGGAGUUCUACAGUCCGACGAUCCUGUGCUACACAUCGUAUGUACCGAAUCGGGAAAAAAAGGGAAAAAAAGGGAAAAAAAGGGGAAAGUAUUAUGUUACGCCGUUCGGAUCUUGGAAUUCUCGGGUGUCAAGG` has a log2 enrichment of -0.689.
`GGGAGUUCUACAGUCCGACGAUCUCCUCAAGUCCUGUGCUACACAUCGUAUGUACCGAAUCGGGAGGAGGGGAGGAAAGUAUUAUGUUACGCCGUUCGGAUCUGCACUUCCAGUGGAAUUCUCGGGUGUCAAGG` has a log2 enrichment of 0.228.

Block 2 — method: protein-binding microarray; molecule type: double-stranded DNA, one strand shown; sample: in vitro; tested at: 2200 nM top; notes: 60-bp whole probe; with: salmon DNA 0.4 mg/ml; baseline: random background probes; direction: higher = stronger binding; shared flanks, not repeated: GCCTAGCAC … GTCTTGATTCGCTTGACGCTGCTG
Target: Interferon regulatory factor 7, full length, phosphomimetic (IRF7, Homo sapiens, UniProt Q92985, residues 1-503, S471D/S472D/S475D/S476D/S477D/S483D/S484D/S487D)
Chain of UniProt Q92985 (whole entry, unmodified, looked up): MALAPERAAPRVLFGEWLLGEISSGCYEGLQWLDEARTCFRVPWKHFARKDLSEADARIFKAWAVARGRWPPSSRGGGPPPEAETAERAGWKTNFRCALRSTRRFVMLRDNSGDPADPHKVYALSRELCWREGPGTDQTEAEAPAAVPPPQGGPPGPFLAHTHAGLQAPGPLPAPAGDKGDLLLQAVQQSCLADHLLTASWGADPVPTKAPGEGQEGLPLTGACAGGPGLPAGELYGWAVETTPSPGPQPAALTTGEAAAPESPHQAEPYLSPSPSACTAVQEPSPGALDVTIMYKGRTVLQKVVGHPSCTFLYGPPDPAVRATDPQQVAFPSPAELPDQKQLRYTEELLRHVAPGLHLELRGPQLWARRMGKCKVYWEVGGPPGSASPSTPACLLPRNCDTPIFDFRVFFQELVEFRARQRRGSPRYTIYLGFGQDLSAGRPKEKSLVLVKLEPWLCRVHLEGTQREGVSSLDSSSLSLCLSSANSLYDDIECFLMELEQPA
`TTCGGTTTCGACTATCGGTTAGTGCTA` — result for “fitted relative affinity”: 5.8 z-score.
`TCATTTCCCAACATCAGACTGTGCTAG` — result for “fitted relative affinity”: 2.48 z-score.
`TCATATCTCTGTTTTTGACTGTGCTAG`: “fitted relative affinity” 1.85 z-score.
`TTAGATTTCAGTTCAGATTAGTGCTAG`: “fitted relative affinity” 1.6 z-score.
`GACGGTATCGACTTTCGGGTCGTGCTA`: “fitted relative affinity” 6.41 z-score.

Further values, each from its own experiment
P1: BRCA2 docking peptide (human); PSIKRNLLNEFDR; partner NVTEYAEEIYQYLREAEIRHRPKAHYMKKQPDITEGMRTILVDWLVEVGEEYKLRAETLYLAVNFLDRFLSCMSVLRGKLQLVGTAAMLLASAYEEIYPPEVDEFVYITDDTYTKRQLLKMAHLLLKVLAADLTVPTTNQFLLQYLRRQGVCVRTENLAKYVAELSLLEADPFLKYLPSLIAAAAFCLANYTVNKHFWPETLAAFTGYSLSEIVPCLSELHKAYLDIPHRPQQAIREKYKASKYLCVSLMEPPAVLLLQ
P2: PKMYT1 docking peptide (human); SFEPRNLLSLFED; partner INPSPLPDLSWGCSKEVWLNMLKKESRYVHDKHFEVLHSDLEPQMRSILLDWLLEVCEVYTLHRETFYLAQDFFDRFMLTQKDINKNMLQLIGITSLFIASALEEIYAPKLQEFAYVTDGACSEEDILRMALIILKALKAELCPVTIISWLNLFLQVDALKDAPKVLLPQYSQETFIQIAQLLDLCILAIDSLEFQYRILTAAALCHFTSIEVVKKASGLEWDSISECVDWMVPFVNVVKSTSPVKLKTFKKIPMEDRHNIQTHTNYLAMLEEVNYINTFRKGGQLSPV
`LLRRLQDVANDRG` — result for “binding enrichment score”: -0.825 (human cyclin B2; peptide binding, yeast competitive growth sequencing; peptide, Saccharomyces cerevisiae, cyclin B2-Cln2 fusion; concentration not given, library 2; direction not given).
With `PhoQ, residues 284 288 289 292 302 303 TASMAF` the fold induction was 9.85 (PhoP, residues 12 14 15 18 19 AQALL (Escherichia coli, UniProt P23836); Sort-seq, refers to: YFP reporter; E. coli; PhoQ-PhoP variant library, with: 10 µM Mg2+; baseline: high Mg2+ state, higher = stronger signaling).
Under “normalised enrichment score”, `P1 L8Y` is recorded as 0.22 (CCNA1, cyclin fold, Cln2 fusion (human); yeast growth competition, sequencing; yeast; weak parent motif; baseline: not given, higher = stronger binding).
For `P2 L8H`, “normalised enrichment score” read -0.546 (CCNE2, cyclin fold, Cln2 fusion (human); yeast growth competition, sequencing; yeast; weak parent motif; baseline: not given, higher = stronger binding).

For quick reference, copied from above (further values, each from its own experiment):
`LLRRLQDVANDRG` — result for “binding enrichment score”: -0.825 (human cyclin B2; peptide binding, yeast competitive growth sequencing; peptide, Saccharomyces cerevisiae, cyclin B2-Cln2 fusion; concentration not given, library 2; direction not given).
With `PhoQ, residues 284 288 289 292 302 303 TASMAF` the fold induction was 9.85 (PhoP, residues 12 14 15 18 19 AQALL (Escherichia coli, UniProt P23836); Sort-seq, refers to: YFP reporter; E. coli; PhoQ-PhoP variant library, with: 10 µM Mg2+; baseline: high Mg2+ state, higher = stronger signaling).
